# Assay results collected from several papers.
# Compare with care: the assays were run in different laboratories. Several values in a cell are separate wells, animals, samples, runs or records. Numbers after ± are the reported error.
SMILES,cell line,test,test system,conditions,how to read,measurement,value
C=CC(=O)N1CCC[C@@H](n2nc(-c3ccc(Oc4ccccc4)cc3)c3c(N)ncnc32)C1,Ramos,"calcium flux, FLIPR",,2 h preincubation,,IC50,1.04 nM
C=CC(=O)Nc1cc2c(Nc3ccc(F)c(Cl)c3)ncnc2cc1OCCCN1CCOCC1,iCell Cardiomyocytes (hiPSC-derived),cellular impedance,,"concentration not given, 24 h",relative to: control,cell index,96.8%
CSc1cc(Oc2ccnc3[nH]c(=O)cnc23)ccc1NC(=O)Nc1cc(C(C)(C)C)nn1-c1ccccc1,patient-derived cells,"RPPA, refers to: phosphorylated HER3",,"1 µM, 4 h, mean of three patients",relative to: DMSO,phospho ratio,0.66
CCOc1ccc(-c2nc3cc(-c4nc5cc(N6CCN(C)CC6)ccc5[nH]4)ccc3[nH]2)cc1OCC,NCI/ADR-RES,"cell growth, NCI-60 SRB",,"10 µM, 48 h",,growth percent,104%
CCn1c(-c2nonc2N)nc2cncc(CNC3CCNCC3)c21,SK-OV-3,ATP,,"1 µM, 4 days, 3D U-bottom low-attachment",relative to: untreated,relative cell number,115%
CCCCCCNC(=O)n1cc(F)c(=O)[nH]c1=O,SW-403,"LC-MS, refers to: Cer(d18:1/16:0)",,10 µM,,ceramide level,121 ± 13.7 pmol/mg protein
CC(C)NCC(O)c1ccc(O)c(O)c1 (centres unmarked),mouse ventricular cardiomyocytes,,,"dose not given, 0.383 s",,sarcomere length,1.8 µm
O=C(Oc1cc(O)cc2c1C[C@@H](OC(=O)c1cc(O)c(O)c(O)c1)[C@@H](c1cc(O)c(O)c(O)c1)O2)c1cc(O)c(O)c(O)c1,Jurkat TAg T cells,phospho-flow cytometry,,"500 nM, 30 min, 37 °C, unstimulated",relative to: DMSO,phospho-ZAP-70 positive cells,3.4%
C=C(c1ccc(O)c(Oc2cc3c(cc2OC)CCN(C)[C@@H]3Cc2ccc(OC)cc2)c1)[C@H]1c2cc(OC)c(OC)cc2CCN1C,3T3-L1,"adipocyte lipid accumulation, Nile Red staining",,1 µM,,inhibition,10.2 ± 0.9%
Cc1cc(=O)[nH]n1-c1nc(-c2ccc(Cl)cc2)c2c(NC(=O)c3ccccc3)nnc-2[nH]1,KM12,SRB,,"10 µM, NCI60 single-dose screen, colon cancer",relative to: untreated,cell growth,100%
COc1cc(-c2ccccc2)ncc1C(=O)Nc1ccc2c(=O)[nH]c(-c3ccc(C(C)(C)O)cc3)nc2c1,Apc Q1405X mutant organoids,"organoid viability, AlamarBlue",mouse small intestinal organoids,"6 days, Tnks genotype Tnks+/+",,Hill slope,-0.517
CC(C)(C)c1cc(O)ccc1O,KRAS wild-type lung cancer cells,MTT,,"concentration not given, 48 h, 2D culture, single agent",,cell viability,no effect
COc1cnc2cccc(N3CCc4c(cc(Cn5ccnc5C)cc4-c4cn(C)nc4C(F)(F)F)C3=O)c2c1,Farage,cell growth,,120 h,,EC50,3110 nM
CCCCc1nc(Cl)c(CO)n1Cc1ccc(-c2ccccc2-c2nn[nH]n2)cc1,human PBMC,"RNA-seq, refers to: DLL1 mRNA",,"10 µg/mL, 24 h",relative to: untreated control,log2 fold change,1.5
CC(C)(C)c1cnc(CSc2cnc(NC(=O)C3CCNCC3)s2)o1,iCell Cardiomyocytes (hiPSC-derived),cellular impedance,,"concentration not given, 24 h",relative to: control,cell index,53.2%
COc1cc2ncnc(Cc3cccc(-c4cccc(CO)c4)c3)c2cc1OC,A549,"mitochondrial oxygen consumption, Seahorse XF96",,10 µM,,inhibition,20%
O=C(/C=C/C=C/C=C/C1CCCCC1)NC1=C[C@@](O)(/C=C/C=C/C=C/C(=O)NC2=C(O)CCC2=O)[C@@H]2O[C@@H]2C1=O,LUDLU-1,"cell growth, CellTiter-Glo",,78 h,,GI50,> 30000 nM
CC(C)(C)c1cc(NC(=O)Nc2ccc(-c3cn4c(n3)sc3cc(OCCN5CCOCC5)ccc34)cc2)no1,iCell Cardiomyocytes (hiPSC-derived),CellTiter-Glo,,"concentration not given, 24 h",relative to: control,ATP level,104%
CCN[C@@H]1C[C@H](N)[C@@H](O[C@H]2OC(CN)=CC[C@H]2N)[C@H](O)[C@H]1O[C@H]1OC[C@](C)(O)[C@H](NC)[C@H]1O.CCN[C@@H]1C[C@H](N)[C@@H](O[C@H]2OC(CN)=CC[C@H]2N)[C@H](O)[C@H]1O[C@H]1OC[C@](C)(O)[C@H](NC)[C@H]1O.O=S(=O)(O)O.O=S(=O)(O)O.O=S(=O)(O)O.O=S(=O)(O)O.O=S(=O)(O)O,HepaRG,ROS-Glo luminescence,,,,maximal ROS response,-91.4 ± 28.1%
Cc1cccc(-c2[nH]c(CNc3ccccc3F)nc2-c2ccc3ncnn3c2)n1,MM1.S,XTT,,1.6 µM,relative to: untreated,viability,30%
COc1ccc(Cc2ncnc3cc(OC)c(OC)cc23)cc1OC,A549,"mitochondrial oxygen consumption, Seahorse XF96",,10 µM,,inhibition,22%
O=c1ncccn1[C@@H]1O[C@H](CO)[C@@H](O)[C@H]1O,MEC1,trypan blue exclusion,,"200 µM, maximal, with: external beam irradiation 2 Gy",relative to: control,viability decrease,6%
Cn1cc(-c2ccc(-c3cncc(Cl)c3N3CCC4(CCNC4=O)CC3)cc2)cn1,COLO 205,"gene expression, microarray, refers to: SLC2A4 (GLUT4) mRNA",,"concentration not given, 2 h",relative to: untreated cells,log2 fold change,-3.11
Cn1cc(Nc2nccc(-c3ccc4c(c3)CN(C3COC3)CC[C@H]4NC(=O)c3cn(C(C)(C)C)nn3)n2)cn1,mouse splenic B cells,refers to: BAG2 signalling pathway,,"30 mg/kg, IgD-activated in vivo","relative to: vehicle, direction not given",pathway activation z-score,-0.632
CCn1cc(-c2cc(Cn3ccnc3)cc3c2CCN([C@H](c2cc(OC)ccn2)C2CC2)C3=O)c(C(F)(F)F)n1,HCC1195,cell growth,,120 h,,EC50,> 30000 nM
Clc1ccc(C2(c3ccc(-c4cn[nH]c4)cc3)CCNCC2)cc1,SK-OV-3,ATP,2D monolayer culture,"1 µM, 4 days",relative to: untreated,relative cell number,55.8%
CCNCCc1ccc(CN(CC)c2cc(OC)ccc2[C@@H]2CCc3cc(O)ccc3C2)cc1,"MCF7/luciferase, wild type",cell proliferation,,,,maximum inhibition,74.7%
Cn1cc(-c2ccc(F)c(C(F)(F)F)c2)nc1C1CCN(c2ncnc3[nH]ncc23)CC1,SK-OV-3,ATP,2D monolayer culture,"0.1 µM, 4 days",relative to: untreated,relative cell number,103%
CCOC(=O)c1sc(NCc2ncccn2)nc1-c1ccccn1,THLE-2,,,,relative to: CC50 THLE-2 over Huh-7,selectivity ratio,< 2
OCc1nc2ccc(NCc3ccc(OC(F)(F)F)cc3)cc2[nH]1,sample A patient iPSC NPCs,"cell protection, MTS",,"up to 100 µM, 24 h",,Emax,31%
C=CCNC1=C2C[C@@H](C)C[C@H](OC)[C@H](O)[C@@H](C)/C=C(\C)[C@H](OC(N)=O)[C@@H](OC)/C=C\C=C(/C)C(=O)NC(=CC1=O)C2=O,ARPE-19 HiBiT fibulin-3,HiBiT luminescence,,5 µM,,fibulin-3 level,-34.1%
CCCS(=O)(=O)Nc1ccc(F)c(C(=O)c2c[nH]c3ncc(Cl)cc23)c1F,iCell Cardiomyocytes (hiPSC-derived),xCELLigence Cardio impedance,,"concentration not given, 2 h",relative to: control,beat amplitude,103%
C[C@H](NC(=O)C(=O)Nc1ccccc1C(C)(C)C)C(=O)N[C@@H](CC(=O)O)C(=O)COc1c(F)c(F)cc(F)c1F,EA.hy926,"apoptosis, CellTiter-Glo",,"concentration not given, with: TRAIL",,viability,83.2%
Cc1cc(Nc2ncc(Cl)c(Nc3ccccc3S(=O)(=O)C(C)C)n2)c(OC(C)C)cc1C1CCNCC1,CLB-GE,"phosphoproteomics LC-MS/MS, refers to: WDR62 phosphorylation",,"200 nM, 60 min",relative to: untreated,log2 fold change,-3.12
CCn1c(-c2nonc2N)nc2c(C#CC(C)(C)O)ncc(OC[C@H]3CCCNC3)c21,iCell Cardiomyocytes (hiPSC-derived),CellTiter-Glo,,"concentration not given, 24 h",relative to: control,ATP level,86.7%
Nc1ncnc2c1ncn2[C@@H]1O[C@H](CO)[C@@H](O)[C@H]1O,activated human T cells,,,100 nM,higher = more TNF,TNF production,5010 a.u. and 4630 a.u. and 4300 a.u.
CCc1cnc(N2CCC(c3nc(COc4ccc(-n5cnnn5)cc4)cs3)CC2)nc1,HEK-293T,"RNA-seq GSEA, refers to: HALLMARK_KRAS_SIGNALING_DN",,concentration not given,direction not given,normalized enrichment score,-0.923
CCN(CC)CCNC(=O)c1c(C)[nH]c(/C=C2\C(=O)Nc3ccc(F)cc32)c1C,iCell Cardiomyocytes (hiPSC-derived),CellTiter-Glo,,"concentration not given, 24 h",relative to: control,ATP level,104%
CC#CC(=O)N1CCC[C@H]1c1nc(-c2ccc(C(=O)Nc3ccccn3)cc2)c2c(N)nccn12,TMD8 RAC2 knockout,"calcium flux, FLIPR",,4 h preincubation,,IC50,7.9 nM
COc1ccc2c(N(C)c3ccc(/C(C)=N/OCCN)cc3)c3c(Cl)coc3nc2c1,LNCaP C-81,,,1 µM,,soft agar colony reduction,50%
Cc1ccc(CNC(=S)N/N=C/c2ccc(N3CCC(O)CC3)cc2)cc1,BEAS-2B and A549,MTT,,,relative to: IC50 BEAS-2B over IC50 A549,selectivity ratio,4.8
CCCCc1oc2ccc(NS(C)(=O)=O)cc2c1C(=O)c1ccc(OCCCN(CCCC)CCCC)cc1,human embryonic stem cell aggregates,"mRNA level, microarray, refers to: KCNK10",,"0.5 µM, 120 h","relative to: untreated, up-regulated",fold change,4 fold
O=C(O)c1ccc(-c2c[nH]c3ncc(-c4ccccc4)cc23)cc1C1CCCC1,SK-OV-3,ATP,,"1 µM, 4 days, 3D gellan gum culture",relative to: untreated,relative cell number,96.2%
CC(C)C[C@@H](C=O)NC(=O)[C@H](CC(C)C)NC(=O)[C@H](CC(C)C)NC(=O)OCc1ccccc1,HEK293,refers to: CD4 signal peptide-FLuc reporter,,"concentration not given, 1 h, time-course chase, unit not given, with: cycloheximide",relative to: untreated,FLuc activity,0.983
Cc1ccc(-n2nc(C(C)(C)C)cc2NC(=O)Nc2ccc(OCCN3CCOCC3)c3ccccc23)cc1,iCell Cardiomyocytes (hiPSC-derived),xCELLigence Cardio impedance,,"concentration not given, 2 h",relative to: control,beat amplitude,94.1%
COc1cc(N2CCC(N3CCN(C)CC3)CC2)ccc1Nc1ncc(Cl)c(Nc2ccccc2P(C)(C)=O)n1,Ba/F3 EML4-ALK variant 1 S1206F,cell viability,,,,IC50,90.5 nM
c1ccc2[nH]ccc2c1,HCT-8,"RNA-seq, refers to: ABCG1",,concentration not given,,"mRNA level, LS mean",3.31 counts per million
C=Cc1c2[n-]c(c1C)/C=c1\[n-]/c(c(C)c1C=C)=C\c1[n-]c(c(CCC(=O)O)c1C)/C=c1\[n-]c(c(C)c1CCC(=O)O)=C2.[Sn+4],SH-SY5Y,"RNA-seq, refers to: SPHK1 mRNA",,"5 µM, 5 h",relative to: untreated cells,fold change,2.53
Cc1ccc(Nc2nccc(N(C)c3ccc4c(C)n(C)nc4c3)n2)cc1S(N)(=O)=O,iCell Cardiomyocytes (hiPSC-derived),CellTiter-Glo,,"concentration not given, 24 h",relative to: control,ATP level,104%
CCn1cc(-c2cc(Cn3ccoc3=N)cc3c2CCN([C@@H](C)c2cc(OC)ccn2)C3=O)c(C(F)(F)F)n1,SKMEL31,cell growth,,120 h,,EC50,> 30000 nM
O=C(C[C@@H](C(F)F)n1ccc(F)n1)N1CCC(O)(Cn2cnc3c(cnn3-c3ccc(F)cc3)c2=O)CC1,CHP-212 parental (wild-type USP7),annexin V-PI flow cytometry,,"0.1 µM, 48 h",,viable cells (annexin V-/PI-),74.7% and 75.7% and 74.2%
CC1(C)COc2ccc(F)cc2CN2c3nc4c(cnn4cc3OC[C@H]2C(F)F)C(=O)N1,Ba/F3 EML4-ALK variant 1 E1210K,cell viability,,,,Emax,99.6%
C=CC(=O)Nc1cccc(Oc2nc(Nc3ccc(N4CCN(C)CC4)cc3)nc3ccoc23)c1,TMD8 RAC2 knockout,"calcium flux, FLIPR",,1 h preincubation,,IC50,60 nM

# A few entries again:
SMILES,cell line,test,test system,conditions,how to read,measurement,value
CC(C)C[C@@H](C=O)NC(=O)[C@H](CC(C)C)NC(=O)[C@H](CC(C)C)NC(=O)OCc1ccccc1,HEK293,refers to: CD4 signal peptide-FLuc reporter,,"concentration not given, 1 h, time-course chase, unit not given, with: cycloheximide",relative to: untreated,FLuc activity,0.983
Cc1ccc(-n2nc(C(C)(C)C)cc2NC(=O)Nc2ccc(OCCN3CCOCC3)c3ccccc23)cc1,iCell Cardiomyocytes (hiPSC-derived),xCELLigence Cardio impedance,,"concentration not given, 2 h",relative to: control,beat amplitude,94.1%
COc1cc(N2CCC(N3CCN(C)CC3)CC2)ccc1Nc1ncc(Cl)c(Nc2ccccc2P(C)(C)=O)n1,Ba/F3 EML4-ALK variant 1 S1206F,cell viability,,,,IC50,90.5 nM
c1ccc2[nH]ccc2c1,HCT-8,"RNA-seq, refers to: ABCG1",,concentration not given,,"mRNA level, LS mean",3.31 counts per million
C=Cc1c2[n-]c(c1C)/C=c1\[n-]/c(c(C)c1C=C)=C\c1[n-]c(c(CCC(=O)O)c1C)/C=c1\[n-]c(c(C)c1CCC(=O)O)=C2.[Sn+4],SH-SY5Y,"RNA-seq, refers to: SPHK1 mRNA",,"5 µM, 5 h",relative to: untreated cells,fold change,2.53
Cc1ccc(Nc2nccc(N(C)c3ccc4c(C)n(C)nc4c3)n2)cc1S(N)(=O)=O,iCell Cardiomyocytes (hiPSC-derived),CellTiter-Glo,,"concentration not given, 24 h",relative to: control,ATP level,104%
CCn1cc(-c2cc(Cn3ccoc3=N)cc3c2CCN([C@@H](C)c2cc(OC)ccn2)C3=O)c(C(F)(F)F)n1,SKMEL31,cell growth,,120 h,,EC50,> 30000 nM
O=C(C[C@@H](C(F)F)n1ccc(F)n1)N1CCC(O)(Cn2cnc3c(cnn3-c3ccc(F)cc3)c2=O)CC1,CHP-212 parental (wild-type USP7),annexin V-PI flow cytometry,,"0.1 µM, 48 h",,viable cells (annexin V-/PI-),74.7% and 75.7% and 74.2%
